Measured values collected from several papers.
Lines come from different studies, so protocols differ. ± gives the spread as reported. Ends that are not written are not given here.
B1: cipA 183-322 (Clostridium thermocellum, UniProt Q06851); sequence looked up; chain GVVVEIGKVTGSVGTTVEIPVYFRGVPSKGIANCDFVFRYDPNVLEIIGIDPGDIIVDPNPTKSFDTAIYPDRKIIVFLFAEDSGTGAYAITKDGVFAKIRATVKSSAPGYITFDEVGGFADNDLVEQKVSFIDGGVNVG
B2: BicD F684I (Drosophila melanogaster, UniProt P16568); chain MSSASNNGPSADQSVQDLQMEVERLTRELDQVSSASAQSAQYGLSLLEEKSALQQKCEELETLYDNTRHELDITQEALTKFQTSQKVTNKTGIEQEDALLNESAARETSLNLQIFDLENELKQLRHELERVRNERDRMLQENSDFGRDKSDSEADRLRLKSELKDLKFRETRMLSEYSELEEENISLQKQVSSLRSSQVEFEGAKHEIRRLTEEVELLNQQVDELANLKKIAEKQMEEALETLQGEREAKYALKKELDGHLNRESMYHISNLAYSIRSNMEDNASNNSDGEEENLALKRLEADLSTELKSPDGTKCDLFSEIHLNELKKLEKQLESMESEKTHLTANLREAQTSLDKSQNELQNFMSRLALLAAHVDALVQLKKQIDVKEQGKEGGQKKDELEQQLRALISQYANWFTLSAKEIDGLKTDIAELQKGLNYTDATTTLRNEVTNLKNKLLATEQKSLDLQSDVQTLTHISQNAGQSLGSARSTLVALSDDLAQLYHLVCTVNGETPTRVLLDHKTDDMSFENDSLTAIQSQFKSDVFIAKPQIVEDLQGLADSVEIKKYVDTVSDQIKYLKTAVEHTIDMNKHKIRSEGGDALEKVNTEEMEELQEQIVKLKSLLSVKREQIGTLRNVLKSNKQTAEVALTNLKSKYENEKIIVSDTMSKLRNELRLLKEDAATISSLRAMFAARCEEYVTQVDDLNRQLEAAEEEKKTLNQLLRLAVQQKLALTQRLEEMEMDREMRHVRRPMPAQRGTSGKSSFSTRPSSRNPASSNANPF
B3: NCOR1 2057-2453 (Mus musculus, UniProt Q60974); fluorescein label; sequence looked up; chain MGQVPRTHRLITLADHICQIITQDFARNQVPSQASTSTFQTSPSALSSTPVRTKTSSRYSPESQSQTVLHPRPGPRVSPENLVDKSRGSRPGKSPERSHIPSEPYEPISPPQGPAVHEKQDSMLLLSQRGVDPAEQRSDSRSPGSISYLPSFFTKLESTSPMVKSKKQEIFRKLNSSGGGDSDMAAAQPGTEIFNLPAVTTSGAVSSRSHSFADPASNLGLEDIIRKALMGSFDDKVEDHGVVMSHPVGIMPGSASTSVVTSSEARRDEGEPSPHAGVCKPKLINKSNSRKSKSPIPGQSYLGTERPSSVSSVHSEGDYHRQTPGWAWEDRPSSTGSTQFPYNPLTIRMLSSTPPTQIACAPSAITQAAPHQQNRIWEREPAPLLSAQYETLSDSDD
B4: Etv2 (Mus musculus, UniProt P41163); sequence looked up; chain MDLWNWDEASLQEVPPGDKLTGLGAEFGFYFPEVALQEDTPITPMNVEGCWKGFPELDWNPALPHEDVPFQAEPVAHPLPWSRDWTDLGCNTSDPWSCASQTPGPAPPGTSPSPFVGFEGATGQNPATSAGGVPSWSHPPAAWSTTSWDCSVGPSGATYWDNGLGGEAHEDYKMSWGGSAGSDYTTTWNTGLQDCSIPFEGHQSPAFTTPSKSNKQSDRATLTRYSKTNHRGPIQLWQFLLELLHDGARSSCIRWTGNSREFQLCDPKEVARLWGERKRKPGMNYEKLSRGLRYYYRRDIVLKSGGRKYTYRFGGRVPVLAYQDDMGHLPGAEGQ
B5: MIF4GD R76A (Homo sapiens, UniProt A9UHW6); sequence looked up; chain MGEPSREEYKIQSFDAETQQLLKTALKDPGAVDLEKVANVIVDHSLQDCVFSKEAGRMCYAIIQAESKQAGQSVFARGLLNRLQQEYQAREQLRARSLQGWVCYVTFICNIFDYLRVNNMPMMALVNPVYDCLFRLAQPDSLSKEEEVDCLVLQLHRVGEQLEKMNGQRMDELFVLIRDGFLLPTGLSSLAQLLLLEIIEFRAAGWKTTPAAHKYYYSEVSD
B6: FBXO5 zinc binding region (Homo sapiens); chain SEVAKTLKKNESLKACIRCNSPAKYDCYLQRATCKREGCGFDYCTKCLCNYHTTKDCSDGKLLKASCKIG
B7: SPDL1 54-605 (Homo sapiens, UniProt Q96EA4); sequence looked up; chain SYEQEKYTLQREVELKSRMLESLSCECEAIKQQQKMHLEKLEEQLSRSHGQEVNELKTKIEKLKVELDEARLSEKQLKHQVDHQKELLSCKSEELRVMSERVQESMSSEMLALQIELTEMESMKTTLKEEVNELQYRQEQLELLITNLMRQVDRLKEEKEEREKEAVSYYNALEKARVANQDLQVQLDQALQQALDPNSKGNSLFAEVEDRRAAMERQLISMKVKYQSLKKQNVFNREQMQRMKLQIATLLQMKGSQTEFEQQERLLAMLEQKNGEIKHLLGEIRNLEKFKNLYDSMESKPSVDSGTLEDNTYYTDLLQMKLDNLNKEIESTKGELSIQRMKALFESQRALDIERKLFANERCLQLSESENMKLRAKLDELKLKYEPEETVEVPVLKKRREVLPVDITTAKDACVNNSALGGEVYRLPPQKEETQSCPNSLEDNNLQLEKSVSIYTPVVSLSPHKNLPVDMQLKKEKKCVKLIGVPADAEALSERSGNTPNSPRLAAESKLQTEVKEGKETSSKLEKETCKKLHPILYVSSKSTPETQCPQQ
B8: SIRT1 del7-83 (Homo sapiens, UniProt Q96EB6); sequence looked up; chain MADEAAAAAGGEQEAQATAAAGEGDNGPGLQGPSREPPLADNLYDEDDDDEGEEEEEAAAAAIGYRDNLLFGDEIITNGFHSCESDEEDRASHASSSDWTPRPRIGPYTFVQQHLMIGTDPRTILKDLLPETIPPPELDDMTLWQIVINILSEPPKRKKRKDINTIEDAVKLLQECKKIIVLTGAGVSVSCGIPDFRSRDGIYARLAVDFPDLPDPQAMFDIEYFRKDPRPFFKFAKEIYPGQFQPSLCHKFIALSDKEGKLLRNYTQNIDTLEQVAGIQRIIQCHGSFATASCLICKYKVDCEAVRGDIFNQVVPRCPRCPADEPLAIMKPEIVFFGENLPEQFHRAMKYDKDEVDLLIVIGSSLKVRPVALIPSSIPHEVPQILINREPLPHLHFDVELLGDCDVIINELCHRLGGEYAKLCCNPVKLSEITEKPPRTQKELAYLSELPPTPLHVSEDSSSPERTSPPDSSVIVTLLDQAAKSNDDLDVSESKGCMEEKPQEVQTSRNVESIAEQMENPDLKNVGSSTGEKNERTSVAGTVRKCWPNRVAKEQISRRLDGNQYLFLPPNRYIFHGAEVYSDSEDDVLSSSSCGSNSDSGTCQSPSLEEPMEDESEIEEFYNGLEDEPDVPERAGGAGFGTDGDDQEAINEAISVKQEVTDMNYPSNKS
UniProt Q13569, sequence (whole entry, unmodified, looked up): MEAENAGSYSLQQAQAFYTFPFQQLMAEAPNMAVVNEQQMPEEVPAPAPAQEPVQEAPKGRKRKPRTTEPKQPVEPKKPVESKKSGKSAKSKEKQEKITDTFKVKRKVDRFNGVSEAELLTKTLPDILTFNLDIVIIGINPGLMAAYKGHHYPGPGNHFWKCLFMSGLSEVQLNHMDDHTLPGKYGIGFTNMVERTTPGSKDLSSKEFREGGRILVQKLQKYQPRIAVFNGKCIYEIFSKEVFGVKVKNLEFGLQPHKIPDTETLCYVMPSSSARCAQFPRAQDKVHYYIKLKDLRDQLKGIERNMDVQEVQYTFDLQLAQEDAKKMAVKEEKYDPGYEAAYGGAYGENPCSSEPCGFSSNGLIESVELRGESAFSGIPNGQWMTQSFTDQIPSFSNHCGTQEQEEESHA
UniProt A2A935, sequence (whole entry, looked up): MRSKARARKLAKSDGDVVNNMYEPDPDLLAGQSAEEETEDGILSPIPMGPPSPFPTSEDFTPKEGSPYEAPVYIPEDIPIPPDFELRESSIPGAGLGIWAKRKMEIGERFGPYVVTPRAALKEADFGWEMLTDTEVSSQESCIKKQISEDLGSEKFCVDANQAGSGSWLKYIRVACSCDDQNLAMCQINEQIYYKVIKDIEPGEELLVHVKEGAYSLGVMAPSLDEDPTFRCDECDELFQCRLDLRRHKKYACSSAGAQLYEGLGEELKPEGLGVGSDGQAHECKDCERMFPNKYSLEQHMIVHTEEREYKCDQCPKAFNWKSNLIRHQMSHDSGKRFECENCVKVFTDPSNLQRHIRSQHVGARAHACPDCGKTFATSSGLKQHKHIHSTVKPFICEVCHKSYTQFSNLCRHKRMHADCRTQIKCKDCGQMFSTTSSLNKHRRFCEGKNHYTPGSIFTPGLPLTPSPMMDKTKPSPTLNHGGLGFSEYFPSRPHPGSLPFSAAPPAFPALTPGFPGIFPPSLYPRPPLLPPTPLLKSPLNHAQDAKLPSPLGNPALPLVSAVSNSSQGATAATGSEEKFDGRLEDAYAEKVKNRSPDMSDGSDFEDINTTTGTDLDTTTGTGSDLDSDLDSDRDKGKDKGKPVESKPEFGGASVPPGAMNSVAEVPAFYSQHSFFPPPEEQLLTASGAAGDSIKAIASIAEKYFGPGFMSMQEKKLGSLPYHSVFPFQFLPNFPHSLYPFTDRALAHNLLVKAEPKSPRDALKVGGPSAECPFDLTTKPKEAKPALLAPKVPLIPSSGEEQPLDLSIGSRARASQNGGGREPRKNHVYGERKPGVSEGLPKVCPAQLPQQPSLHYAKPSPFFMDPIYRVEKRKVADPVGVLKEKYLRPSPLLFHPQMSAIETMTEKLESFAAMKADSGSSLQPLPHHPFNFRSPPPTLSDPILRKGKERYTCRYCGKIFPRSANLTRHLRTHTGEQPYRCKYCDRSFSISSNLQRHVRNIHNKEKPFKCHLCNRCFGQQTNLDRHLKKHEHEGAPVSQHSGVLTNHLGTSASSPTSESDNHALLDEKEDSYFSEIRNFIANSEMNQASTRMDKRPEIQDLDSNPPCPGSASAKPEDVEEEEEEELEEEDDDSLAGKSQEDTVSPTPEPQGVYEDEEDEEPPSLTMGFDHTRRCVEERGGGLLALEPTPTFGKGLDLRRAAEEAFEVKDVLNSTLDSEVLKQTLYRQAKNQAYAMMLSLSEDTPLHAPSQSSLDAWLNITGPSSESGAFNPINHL
UniProt P55895, sequence (whole entry, looked up): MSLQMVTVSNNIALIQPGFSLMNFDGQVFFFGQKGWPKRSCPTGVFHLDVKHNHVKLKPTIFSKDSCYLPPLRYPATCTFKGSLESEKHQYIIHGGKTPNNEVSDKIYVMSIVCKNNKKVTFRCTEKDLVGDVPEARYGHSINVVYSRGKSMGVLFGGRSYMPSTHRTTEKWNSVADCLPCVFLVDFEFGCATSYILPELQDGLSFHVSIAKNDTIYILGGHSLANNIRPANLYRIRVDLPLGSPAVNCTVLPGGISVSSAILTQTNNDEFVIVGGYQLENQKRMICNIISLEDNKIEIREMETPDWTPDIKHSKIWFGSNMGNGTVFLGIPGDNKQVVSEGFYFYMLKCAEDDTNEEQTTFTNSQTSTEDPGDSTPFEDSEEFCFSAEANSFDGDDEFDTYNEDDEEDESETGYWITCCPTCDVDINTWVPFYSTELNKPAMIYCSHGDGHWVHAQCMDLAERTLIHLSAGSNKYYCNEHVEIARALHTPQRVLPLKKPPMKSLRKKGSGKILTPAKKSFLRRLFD
UniProt P09038, sequence (whole entry, looked up): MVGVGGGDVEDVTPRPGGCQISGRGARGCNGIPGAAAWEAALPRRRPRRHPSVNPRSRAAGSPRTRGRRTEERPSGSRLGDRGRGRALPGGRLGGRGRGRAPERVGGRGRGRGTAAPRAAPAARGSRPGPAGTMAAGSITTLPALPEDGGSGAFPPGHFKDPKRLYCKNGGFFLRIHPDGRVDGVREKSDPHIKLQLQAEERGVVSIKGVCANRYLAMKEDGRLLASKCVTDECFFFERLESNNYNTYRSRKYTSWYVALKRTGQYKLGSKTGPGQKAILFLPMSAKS
UniProt P02453, sequence (whole entry, looked up): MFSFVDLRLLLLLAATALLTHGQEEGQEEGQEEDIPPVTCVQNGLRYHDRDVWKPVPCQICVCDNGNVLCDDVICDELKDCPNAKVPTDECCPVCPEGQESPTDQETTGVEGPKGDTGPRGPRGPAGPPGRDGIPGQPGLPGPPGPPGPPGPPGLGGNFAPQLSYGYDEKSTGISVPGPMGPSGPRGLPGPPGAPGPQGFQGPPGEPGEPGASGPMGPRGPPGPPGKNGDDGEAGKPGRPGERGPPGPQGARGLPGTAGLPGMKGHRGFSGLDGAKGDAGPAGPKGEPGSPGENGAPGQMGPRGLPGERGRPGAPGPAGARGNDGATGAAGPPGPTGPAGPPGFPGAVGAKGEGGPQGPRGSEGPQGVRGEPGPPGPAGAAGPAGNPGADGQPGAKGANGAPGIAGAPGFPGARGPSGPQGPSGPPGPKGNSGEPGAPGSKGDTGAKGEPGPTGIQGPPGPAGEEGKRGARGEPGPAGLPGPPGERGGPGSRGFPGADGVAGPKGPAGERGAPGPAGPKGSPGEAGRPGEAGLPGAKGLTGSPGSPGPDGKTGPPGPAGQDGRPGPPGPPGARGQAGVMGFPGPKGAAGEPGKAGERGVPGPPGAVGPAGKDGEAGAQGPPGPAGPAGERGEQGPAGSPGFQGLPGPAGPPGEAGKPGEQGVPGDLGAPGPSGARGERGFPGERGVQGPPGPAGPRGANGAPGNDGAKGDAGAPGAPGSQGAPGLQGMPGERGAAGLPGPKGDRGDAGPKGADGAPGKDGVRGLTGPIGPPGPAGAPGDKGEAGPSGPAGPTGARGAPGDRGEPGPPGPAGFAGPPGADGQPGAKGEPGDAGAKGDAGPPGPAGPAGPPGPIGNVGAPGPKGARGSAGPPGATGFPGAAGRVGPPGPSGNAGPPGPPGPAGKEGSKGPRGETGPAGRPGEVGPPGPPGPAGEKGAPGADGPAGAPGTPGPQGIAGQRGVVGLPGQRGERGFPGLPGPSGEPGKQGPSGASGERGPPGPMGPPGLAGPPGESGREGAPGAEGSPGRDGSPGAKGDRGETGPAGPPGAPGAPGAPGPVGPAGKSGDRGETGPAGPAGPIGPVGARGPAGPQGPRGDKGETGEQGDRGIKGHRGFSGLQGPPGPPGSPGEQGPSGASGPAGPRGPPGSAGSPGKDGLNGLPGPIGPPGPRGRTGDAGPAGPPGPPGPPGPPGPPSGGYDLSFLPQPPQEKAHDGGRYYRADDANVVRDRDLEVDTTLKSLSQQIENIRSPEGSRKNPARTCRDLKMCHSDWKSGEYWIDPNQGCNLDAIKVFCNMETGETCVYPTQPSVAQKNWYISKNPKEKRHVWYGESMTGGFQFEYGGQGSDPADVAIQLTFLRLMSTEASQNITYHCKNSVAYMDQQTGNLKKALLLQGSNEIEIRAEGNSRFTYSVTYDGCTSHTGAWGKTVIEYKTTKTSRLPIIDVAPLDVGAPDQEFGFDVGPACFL
UniProt P43219, sequence (whole entry, looked up): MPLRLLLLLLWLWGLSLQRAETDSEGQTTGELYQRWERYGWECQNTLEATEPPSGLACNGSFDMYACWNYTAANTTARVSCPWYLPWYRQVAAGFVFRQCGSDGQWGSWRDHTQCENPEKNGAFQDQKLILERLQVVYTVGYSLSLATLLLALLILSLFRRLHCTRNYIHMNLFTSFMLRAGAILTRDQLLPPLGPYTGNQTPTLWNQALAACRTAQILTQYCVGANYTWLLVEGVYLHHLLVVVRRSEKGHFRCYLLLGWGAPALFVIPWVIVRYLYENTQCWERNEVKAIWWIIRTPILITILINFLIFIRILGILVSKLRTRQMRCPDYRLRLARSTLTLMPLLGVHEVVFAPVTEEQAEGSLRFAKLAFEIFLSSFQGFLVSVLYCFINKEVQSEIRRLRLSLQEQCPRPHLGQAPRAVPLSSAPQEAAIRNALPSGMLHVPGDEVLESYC
UniProt P0AGE0, sequence (whole entry, looked up): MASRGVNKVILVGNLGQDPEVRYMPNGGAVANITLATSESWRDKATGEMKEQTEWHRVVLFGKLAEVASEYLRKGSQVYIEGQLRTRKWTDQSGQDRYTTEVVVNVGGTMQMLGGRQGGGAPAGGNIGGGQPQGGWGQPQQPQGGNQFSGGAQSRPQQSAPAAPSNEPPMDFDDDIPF
UniProt Q14493, sequence (whole entry, looked up): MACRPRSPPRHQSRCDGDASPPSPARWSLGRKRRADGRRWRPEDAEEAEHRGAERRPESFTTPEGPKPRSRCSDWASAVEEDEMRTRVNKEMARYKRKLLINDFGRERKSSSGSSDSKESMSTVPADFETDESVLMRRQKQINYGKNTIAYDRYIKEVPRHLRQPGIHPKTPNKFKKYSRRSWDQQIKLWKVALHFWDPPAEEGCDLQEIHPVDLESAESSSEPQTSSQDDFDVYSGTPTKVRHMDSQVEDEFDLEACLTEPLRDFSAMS

The dissociation half-life of `CAND1, FlAsH label (UniProt Q86VP6)` is reported as 20 min (CUL2/RBX1, AMCA label on C-terminal tag (Homo sapiens); FRET or BRET; 100 nM, no neddylation, together with: VBC 200 nM).
`SERPINC1 R45E/R46E/K114E/R129E (Homo sapiens)` has a k2 of 3600 M⁻¹ s⁻¹ (coagulation factor Xa (UniProt P00742); steady-state kinetics; room temperature, no heparin).
`B1 (cipA 183-322)` — result for “molecule per partner”: 0.924 ± 0.002 (celS dockerin module 673-739, 15N label (Clostridium thermocellum, UniProt A3DH67); ITC; pH 7.5, 298 K, KCl 100 mM, single-site model, together with: CaCl2 5 mM).
`B2 (BicD F684I)` gave a run length of 3.3 µm (DYNC1H1/DYNC1I2/DYNC1LI2/DYNLT1/DYNLRB1/DYNLL1 (Homo sapiens); single-molecule TIRF).
`KAR9 50-residue Site2 peptide (Saccharomyces cerevisiae)` — result for “molecule per partner”: 0.99 (BIM1 194-344 (Saccharomyces cerevisiae, UniProt P40013); ITC; pH 7.5, 25 °C, NaCl 150 mM).
For `CRYBB1 fragment (Homo sapiens)`, “subunit exchange rate” read 0.0199 ± 0.0043 min⁻¹ (CRYBA1, Alexa Fluor 488 label (Homo sapiens, UniProt P05813); FRET; pH 7.5, 37 °C, 100 mM NaCl).
The EC50 of `B3 (NCOR1 2057-2453)` is reported as 8.3 nM (THRB/RXRA TRβ , RXRα full length 87-461 (Homo sapiens); coregulator recruitment, tr-FRET; no ligand).
`CALM3 (Homo sapiens, UniProt P0DP25)` — result for “slow recovery time constant”: 60.1 ms (SCN5A peptide truncated IG peptide (Homo sapiens, UniProt Q14524); whole-cell patch clamp; tsA201; together with: Ca2+).
`collagen I (Bos taurus, UniProt P02453)` — result for “DDR1 ectodomain shedding”: 75% (DDR1 R105A (Homo sapiens, UniProt Q08345-2); blot; HEK293; 24 h; relative to: WT, lower = less shedding).
`ssb (Escherichia coli, UniProt P0AGE0)`: “ratio of effective affinity constants” 3 ratio (RecQ helicase and Zn-binding domains (Escherichia coli); unwinding activity, magnetic tweezers; without vs with SSB).
For `Cltc (Mus musculus, UniProt Q68FD5)`, “co-precipitated clathrin heavy chain” read 2.7 fold (Gja1, pS262; pS279/282; pS368 (Mus musculus, UniProt P23242); co-IP; mES cells, lysate; together with: PD98059 plus EGF; relative to: untreated colonies, higher = more co-precipitation).
`ARTK(Me3)QTARKSTGGKAPRK (histone H3 residues 1-18; K4me3)` has an EC50 of 6300 nM (RAG2 397-493 (Homo sapiens, UniProt P55895); displacement of biotinylated peptide, competitor, AlphaScreen; peptide).
The reporter activity of `B4 (Etv2)` is reported as 64 fold (Gata2 (Mus musculus, UniProt O09100); Tie2 promoter luciferase; C2C12; higher = more activation).
With `FGF2 (Homo sapiens, UniProt P09038)` the cell proliferation was 1% (FGFR3 isoform IIIc (unknown, UniProt Q61851); cell proliferation, MTT; BaF3-FGFR3c; 20 nM, 48 h, together with: chondroitin sulfate D 4.9 µg/mL; relative to: FGF 1 with heparin, higher = more proliferation).
`Prdm16 (Mus musculus, UniProt A2A935)` — result for “luciferase reporter activity”: 25 fold (Znf516 (Mus musculus, UniProt Q7TSH3); UCP1 promoter reporter; 293FT; together with: Zfp516 with PRDM16; higher = more promoter activity).
For `RCVRLHESCLGQQVPCCDPCATCYCRFFNAFCYCRKLGTAMNPCSRT (AGRP 86-132 (Homo sapiens, UniProt O00253); sequence looked up)`, “inverse agonist EC50” read 4.4 nM (MC4R D189E (Homo sapiens, UniProt P32245); cAMP, inverse agonist, AlphaScreen; HEK293; apparent).
For `B5 (MIF4GD R76A)`, the koff was 0.000549 s⁻¹ (SLBP, phosphorylated, multiple sites (Homo sapiens, UniProt Q14493); SPR; pH 7.4, 25 °C, NaCl 150 mM).
The potency gain of `Hu 15C1 IgG1 N325S/L328F (Homo sapiens)` is reported as > 1000 fold (FCGR1A (Homo sapiens, UniProt P12314); LPS-induced TLR4 activation; THP1-XBlue; without IVIg; relative to: format without Fc, higher = greater potency gain).
For `CGA/LHB (Equus caballus)`, the EC50 was 0.254 µg/mL (LHCGR D417N (eel); cAMP response, agonist, HTRF; CHO-K1; 30 min, room temperature).
With `B6 (FBXO5 zinc binding region)` the Ki was > 80000 nM (APC/C/CDH1 (Homo sapiens); ubiquitination assay).
The protease protection of `RANBP2 fragment (Homo sapiens)` is reported as 13 fold (RANGAP1/SUMO1/UBE2I RanGAP1 419-578 (Homo sapiens); SENP1 deconjugation protection; relative to: RanGAP1-SUMO2 protection, higher = more protection).
`DIIRNIARHLAQVGDSMDRS (BID BH3 peptide, 20-mer (Homo sapiens))` has a ΔH of -6.45 kcal/mol (BCL2L1 1-200 (Homo sapiens, UniProt Q07817-1); ITC; peptide; one-site fit).
`B7 (SPDL1 54-605)` — result for “molecule per partner”: > 4 (KNTC1/ZW10/ZWILCH; SPR).
With `YAEGTFISDYSIAMDKIRQQDFVNWLLAQRGKKSDWKHNITQ (Gip mature (Mus musculus, UniProt P48756))` the Ki was 1.2 nM (Gipr (Rattus norvegicus, UniProt P43219); radioligand binding).
The intermediate equivalents of `gcvH fragment, N6-(6-mercapto-octanoyl)-lysine` is reported as 0.6 equiv (lipA (Escherichia coli, UniProt P60716); SEC; 30 min, together with: SAM 180 µM).
The ubiquitination of `slmb (Drosophila)` is reported as 10 fold (plk4 S293A (Drosophila melanogaster, UniProt O97143); densitometry of anti-FLAG blot; relative to: WT-Plk4, higher = more ubiquitination).
For `GABBR1 GABAB1b isoform (Homo sapiens)`, “cell surface expression” read 106% (GABBR2 42-819 (Homo sapiens, UniProt O75899); anti-Flag M1 on intact cells; relative to: full-length WT/WT heterodimer, higher = more surface expression).
For `B8 (SIRT1 del7-83)`, the product formation was 5 fold (TDG (Homo sapiens, UniProt Q13569); TDG glycosylase activity; 2 nM, 64 min, together with: T/G-DNA 5 nM; relative to: reactions without SIRT1, higher = more product).
`Ac-TGGFQMALT (peptide; N-acetyl)` has a Ki of 120 ± 10 nM (HSPA8 395-509 (Homo sapiens, UniProt P11142); competition with tracer, fluorescence polarisation; peptide; together with: FAM-Cdk4-2 tracer).

For quick reference, copied from above:
The dissociation half-life of `CAND1, FlAsH label (UniProt Q86VP6)` is reported as 20 min (CUL2/RBX1, AMCA label on C-terminal tag (Homo sapiens); FRET or BRET; 100 nM, no neddylation, together with: VBC 200 nM).
`SERPINC1 R45E/R46E/K114E/R129E (Homo sapiens)` has a k2 of 3600 M⁻¹ s⁻¹ (coagulation factor Xa (UniProt P00742); steady-state kinetics; room temperature, no heparin).
